{"data": "Assay results of several laboratories"}
{"SMILES": "CN(CCC#N)C1CCN(C(=O)Cn2cc(NC(=O)c3cnn4cccnc34)c(-c3cc(Cl)ccc3OC(F)F)n2)CC1", "system": "human plasma", "setting": "24 h, room temperature", "stability": "stable"}
{"SMILES": "O=C(NCCc1c[nH]c2ccccc12)C(=O)c1c[nH]c2ccc(F)cc12", "setting": "up to 48 h, pH 7.4", "stability": "stable"}
{"SMILES": "Cc1ccc(CNC(=O)c2cc(/C=C/C(=O)O)cc(-c3ccc4ncnn4c3)c2)cc1", "system": "simulated intestinal fluid", "setting": "2 h", "stability": "stable"}
{"SMILES": "O=C(NCCN1CCCC1)c1cc(-c2ccc(CN3CCOCC3)cc2)nc2ccc(F)cc12", "system": "simulated gastric fluid", "stability": "> 4 h"}
{"SMILES": "CCC[C@H](N[C@@H](C)C(=O)N1[C@H](C(=O)O)C[C@@H]2CCCC[C@@H]21)C(=O)O", "system": "human plasma", "setting": "16.0 ng/mL, 30 h, 8 °C, autosampler, high QC", "stability": "94.1%"}
{"SMILES": "O=C(N/N=C/c1ccccc1O)c1ccncc1", "system": "rat plasma", "setting": "3 µM, 12 h, 5 °C, post-preparative", "stability": "91.8%"}
{"SMILES": "CC[C@@H](C)[C@@H](N)C(=O)N[C@@H](CC(C)C)C(=O)N[C@@H](CCCNC(=N)N)C(=O)N[C@@H](Cc1c[nH]c2ccccc12)C(=O)N[C@@H](CO)C(=O)N[C@@H](CCCNC(=N)N)C(=O)N[C@@H](CCCCN)C(=O)N[C@@H](CC(C)C)C(=O)N1CCC[C@H]1C(N)=O", "system": "human plasma", "scale": "time remaining stable", "stability": "> 8 h"}
{"SMILES": "C=C(NC(=O)c1csc(-c2nc3c(cc2O[C@@H]2O[C@H](CO)[C@@H](O)[C@H](O)[C@H]2O)-c2nc(cs2)C(=O)N[C@@H]([C@@H](C)O)C(=O)N/C(=C\\C)c2nc(cs2)C(=O)N[C@H]2C[C@H](O)C(=O)OCc4cccc5[nH]c(c(C)c45)C(=O)SC[C@H](NC(=O)c4csc2n4)c2nc-3cs2)n1)C(N)=O", "assay": "HPLC", "setting": "24 h, pH 2.0–7.0, 25 °C", "stability": "stable"}
{"SMILES": "Cc1ccc(S(=O)(=O)n2cc3c4c2C(=O)C(NCc2ccc(Cl)cc2)=CC4=NCC3)cc1", "assay": "HPLC-MS/MS", "system": "rat plasma", "stability": "stable"}
{"SMILES": "CNC(=O)c1ccc(-c2cnc3ncc(Cc4ccc5ncccc5c4)n3n2)cc1F", "system": "human plasma", "setting": "24.7 h, ambient", "stability": "≥ 24.7 h"}
{"note": "Excerpt of the above:"}
{"SMILES": "CN(CCC#N)C1CCN(C(=O)Cn2cc(NC(=O)c3cnn4cccnc34)c(-c3cc(Cl)ccc3OC(F)F)n2)CC1", "system": "human plasma", "setting": "24 h, room temperature", "stability": "stable"}
